Experimental data gathered from unrelated publications.
Numbered parts are unrelated; each lists some results of a single study. Substitutions count along the parent as printed.

Block 1
Target: Prothrombin, mature alpha-thrombin (F2, Homo sapiens, UniProt P00734)
Method: aptamer microarray, sandwich
Molecule type: DNA with 2'F-ANA
Medium: in vitro
Concentration: 200 nM
Notes: whole 15-mer aptamer, many near background
With: Cy3 exosite-II aptamer, 400 nM
Reading: higher = stronger binding
Oligonucleotide: GGTTGGTGTGGTTGG
`2'F-ANA at 1 4 9 10 14 15`: “mean fluorescence intensity” 74.9 a.u.
For `2'F-ANA at 3 5 7 9 12 15`, “mean fluorescence intensity” read 224 a.u.
Under “mean fluorescence intensity”, `2'F-ANA at 1 2 3 4 7 8 12 13` is recorded as 347 a.u.
`2'F-ANA at 1 2 3 4 5 6 7 8 14`: “mean fluorescence intensity” 47.5 a.u.
Under “mean fluorescence intensity”, `2'F-ANA at 2 3 5 11 14` is recorded as 54.9 a.u.
`2'F-ANA at 3 4 5 7 8 9 10 11 14 15` — result for “mean fluorescence intensity”: 56.7 a.u.
Under “mean fluorescence intensity”, `2'F-ANA at 3 4 5 7 10 12` is recorded as 151 a.u.
`2'F-ANA at 2 5 6 7 8 10 12 13 15`: “mean fluorescence intensity” 47.3 a.u.

Block 2
Target: CCNB1, cyclin fold, Cln2 fusion (human)
Method: yeast growth competition, sequencing
Medium: yeast
Notes: weak parent motif
Relative to: not given
Reading: higher = stronger binding
Starting sequence: viral docking peptide; PTARRRLLHDLDT
`L7A`: “normalised enrichment score” 0.146.
Under “normalised enrichment score”, `R5K H9F` is recorded as 1.41.
Under “normalised enrichment score”, `R4A` is recorded as -0.0595.
`R5K L8F` — result for “normalised enrichment score”: 0.72.
For `L8A`, “normalised enrichment score” read -0.283.
Under “normalised enrichment score”, `R5A` is recorded as 0.0735.
For `T2A`, “normalised enrichment score” read 0.698.
`D12A`: “normalised enrichment score” -0.00111.

Other studies, line by line
OGT: UDP-N-acetylglucosamine--peptide N-acetylglucosaminyltransferase 110 kDa subunit (OGT, Homo sapiens, UniProt O15294)
Chain of UniProt O15294 (whole entry, looked up): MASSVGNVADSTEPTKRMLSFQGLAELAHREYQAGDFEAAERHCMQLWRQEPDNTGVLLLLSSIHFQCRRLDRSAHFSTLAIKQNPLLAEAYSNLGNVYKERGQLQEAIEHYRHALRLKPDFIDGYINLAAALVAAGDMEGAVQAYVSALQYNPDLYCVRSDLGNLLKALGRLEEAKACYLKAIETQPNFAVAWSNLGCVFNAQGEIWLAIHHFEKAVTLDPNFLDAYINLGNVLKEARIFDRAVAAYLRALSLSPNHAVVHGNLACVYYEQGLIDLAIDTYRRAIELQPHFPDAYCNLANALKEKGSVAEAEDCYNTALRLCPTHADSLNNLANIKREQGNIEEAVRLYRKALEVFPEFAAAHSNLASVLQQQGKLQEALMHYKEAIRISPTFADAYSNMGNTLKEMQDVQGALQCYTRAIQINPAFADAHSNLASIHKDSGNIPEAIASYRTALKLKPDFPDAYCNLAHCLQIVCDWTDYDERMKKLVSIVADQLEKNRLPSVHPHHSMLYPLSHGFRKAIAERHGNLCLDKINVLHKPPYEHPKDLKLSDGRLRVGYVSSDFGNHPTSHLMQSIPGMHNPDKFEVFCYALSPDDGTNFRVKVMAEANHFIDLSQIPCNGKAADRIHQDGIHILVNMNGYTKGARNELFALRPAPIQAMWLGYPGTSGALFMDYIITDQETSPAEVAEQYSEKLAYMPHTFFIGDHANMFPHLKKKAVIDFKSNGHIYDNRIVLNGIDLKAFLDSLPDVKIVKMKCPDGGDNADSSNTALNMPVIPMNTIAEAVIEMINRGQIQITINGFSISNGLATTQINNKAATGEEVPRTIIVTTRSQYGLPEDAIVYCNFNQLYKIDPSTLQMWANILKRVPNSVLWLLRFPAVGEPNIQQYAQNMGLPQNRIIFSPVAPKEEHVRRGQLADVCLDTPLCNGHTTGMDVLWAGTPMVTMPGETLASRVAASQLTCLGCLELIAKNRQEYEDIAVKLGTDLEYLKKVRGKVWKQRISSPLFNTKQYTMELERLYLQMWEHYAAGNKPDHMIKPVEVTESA
P1: PafA, mature enzyme, eGFP fusion (Elizabethkingia meningoseptica, UniProt Q9KJX5); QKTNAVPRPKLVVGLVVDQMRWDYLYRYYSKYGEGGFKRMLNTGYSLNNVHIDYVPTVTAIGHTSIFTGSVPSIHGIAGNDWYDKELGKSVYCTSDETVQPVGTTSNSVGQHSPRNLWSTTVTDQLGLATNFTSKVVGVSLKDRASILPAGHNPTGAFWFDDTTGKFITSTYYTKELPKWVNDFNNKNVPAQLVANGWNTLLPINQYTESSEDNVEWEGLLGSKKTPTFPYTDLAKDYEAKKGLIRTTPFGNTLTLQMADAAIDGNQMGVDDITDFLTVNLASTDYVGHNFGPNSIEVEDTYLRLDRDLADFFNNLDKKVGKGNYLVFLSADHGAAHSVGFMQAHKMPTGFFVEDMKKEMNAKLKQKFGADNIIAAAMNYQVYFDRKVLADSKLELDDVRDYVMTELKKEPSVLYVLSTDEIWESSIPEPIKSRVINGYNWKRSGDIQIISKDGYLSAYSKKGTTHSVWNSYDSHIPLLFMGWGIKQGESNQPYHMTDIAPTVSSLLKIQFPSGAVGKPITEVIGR
`KMESYQPAYQINYTH`: “enrichment fold change” 2 (OGT; binding, phage display NGS; peptide; concentration not given, panning round 4; relative to: input library).
`PhoQ, residues 284 288 289 292 302 303 NLSRDF` gave a fold induction of 10.4 (PhoP, residues 12 14 15 18 19 LHSVQ (Escherichia coli, UniProt P23836); Sort-seq, refers to: YFP reporter; E. coli; PhoQ-PhoP variant library, with: 10 µM Mg2+; relative to: high Mg2+ state, higher = stronger signaling).
Under “enrichment fold change”, `MWMPQYQITYDPRVT` is recorded as 1.9 (OGT; binding, phage display NGS; peptide; concentration not given, panning round 4; relative to: input library).
`P1 S471V` — result for “oxyanion analog dissociation constant”: 848 nM (vanadate, free oxyanion; microfluidic competitive inhibition; in vitro, cell-free expressed; not given, derived from inhibition constants, unchanged parent 676 nM; lower = stronger binding).

A few entries again (other studies, line by line):
`PhoQ, residues 284 288 289 292 302 303 NLSRDF` gave a fold induction of 10.4 (PhoP, residues 12 14 15 18 19 LHSVQ (Escherichia coli, UniProt P23836); Sort-seq, refers to: YFP reporter; E. coli; PhoQ-PhoP variant library, with: 10 µM Mg2+; relative to: high Mg2+ state, higher = stronger signaling).
Under “enrichment fold change”, `MWMPQYQITYDPRVT` is recorded as 1.9 (OGT; binding, phage display NGS; peptide; concentration not given, panning round 4; relative to: input library).
